Measured values from different studies.
Every numbered part comes from another study and shows a few of its results, in no order. Positions count from the first letter of the parent shown.

Block 1
Target: CCNA2, cyclin fold, Cln2 fusion (human)
Technique: yeast growth competition, sequencing
Medium: yeast
Setting: strong parent motif
Baseline: not given
Direction: higher = stronger binding
Starting sequence: RBL1 docking peptide (human); GSAKRRLFGEDPP
Substitution | normalised enrichment score
GSAKRRLFGEDMP [P12M] | 5.66
GSAKRRLFGEDWP [P12W] | 5.38
GSAKRCLFGEDPP [R6C] | 4.67
GSAKWRLFGEDPP [R5W] | 0.541
GSAKRRLFGYDPP [E10Y] | 5.02
GSAKRMLFGEDPP [R6M] | 2.98
GSLKRRLFGEDPP [A3L] | 1.96
QSAKRRLFGEDPP [G1Q] | 5.72
GSAKRRLFGEFPP [D11F] | 5.56

Block 2
Target: Histone acetyltransferase KAT6A, both winged helices, GST fusion (KAT6A, Homo sapiens, UniProt Q92794, residues 1-181)
Technique: protein binding microarray
Form: double-stranded DNA, one strand shown
Medium: in vitro
Tested at: not given
Setting: 8-mer, flanks averaged, mean of 2 arrays, mostly near background
Baseline: not given
Direction: higher = stronger binding
Construct (chain): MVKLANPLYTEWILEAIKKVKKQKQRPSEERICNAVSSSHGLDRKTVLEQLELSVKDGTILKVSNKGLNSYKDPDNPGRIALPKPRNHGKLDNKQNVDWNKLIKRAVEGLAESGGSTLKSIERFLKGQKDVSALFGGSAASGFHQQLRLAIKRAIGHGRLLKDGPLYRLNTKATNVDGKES
Strand | E-score
AGTTGCCA | -0.0934
GAACAAGA | -0.0573
CCGTCCAA | 0.108
AGTAAACA | -0.181
CATGAGGG | -0.192
CGCATCCA | 0.266
GCCCTTCA | -0.0906
GTACCAAC | -0.0255

Block 3
Target: Centromere-binding protein 1, full length, N-terminal tag (CBF1, Saccharomyces cerevisiae, UniProt P17106, residues 1-351)
UniProt P17106, sequence (whole entry, looked up): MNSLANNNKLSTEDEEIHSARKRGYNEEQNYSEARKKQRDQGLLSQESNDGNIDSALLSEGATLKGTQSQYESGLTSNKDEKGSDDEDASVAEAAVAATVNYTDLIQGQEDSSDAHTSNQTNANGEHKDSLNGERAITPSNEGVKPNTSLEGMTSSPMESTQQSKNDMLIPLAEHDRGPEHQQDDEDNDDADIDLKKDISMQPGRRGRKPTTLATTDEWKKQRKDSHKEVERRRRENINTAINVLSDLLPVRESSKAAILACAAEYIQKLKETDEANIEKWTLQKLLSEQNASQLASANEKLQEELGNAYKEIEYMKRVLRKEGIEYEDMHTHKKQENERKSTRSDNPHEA
Technique: protein-binding microarray
Form: double-stranded DNA, one strand shown
Medium: in vitro
Tested at: 0.8 µM
Setting: whole 60-bp probe, no competitor
Direction: higher = stronger binding
Constant ends, left off below: … GTCTTGATTCGCTTGACGCTGCTG
Strand | fluorescence intensity
GAAAAGTCGTTTATACACGTTTGAGTTGTGTGTTAG | 524 a.u.
GAAGCCTATTATGGTGAGCAGGTGAAATCCTAGTAG | 554 a.u.
GAATTGGAGCACTCTCATGACACTAAATCAACATAG | 607 a.u.
TGTACGAAGCTATTAAACATGACTATAGTAGTTAGG | 529 a.u.
GAAGCTTGCGAGGGACACACGTGGTATGGTGGCTAG | 3220 a.u.
CCTAACTACTATACATCCGTGATATAGCTTCGTACA | 531 a.u.

Single results of other studies
Molecule | target | test | test system | conditions | how to read | endpoint | value
PhoQ, residues 284 288 289 292 302 303 SLGVVW | PhoP, residues 12 14 15 18 19 SGWQI (Escherichia coli, UniProt P23836) | Sort-seq, refers to: YFP reporter | E. coli | PhoQ-PhoP variant library, with: 10 µM Mg2+ | baseline: high Mg2+ state, higher = stronger signaling | fold induction | 9.18

A few entries again (block 1):
Substitution | normalised enrichment score
GSAKRRLFGEDMP [P12M] | 5.66
GSAKRRLFGEDWP [P12W] | 5.38
